Results pooled from the literature.
Each line is one published result; not all experiments were run side by side. ± gives the spread as reported.
ABCG2: Broad substrate specificity ATP-binding cassette transporter ABCG2 (ABCG2, Homo sapiens, UniProt Q9UNQ0)
Chain of UniProt Q9UNQ0 (whole entry, looked up): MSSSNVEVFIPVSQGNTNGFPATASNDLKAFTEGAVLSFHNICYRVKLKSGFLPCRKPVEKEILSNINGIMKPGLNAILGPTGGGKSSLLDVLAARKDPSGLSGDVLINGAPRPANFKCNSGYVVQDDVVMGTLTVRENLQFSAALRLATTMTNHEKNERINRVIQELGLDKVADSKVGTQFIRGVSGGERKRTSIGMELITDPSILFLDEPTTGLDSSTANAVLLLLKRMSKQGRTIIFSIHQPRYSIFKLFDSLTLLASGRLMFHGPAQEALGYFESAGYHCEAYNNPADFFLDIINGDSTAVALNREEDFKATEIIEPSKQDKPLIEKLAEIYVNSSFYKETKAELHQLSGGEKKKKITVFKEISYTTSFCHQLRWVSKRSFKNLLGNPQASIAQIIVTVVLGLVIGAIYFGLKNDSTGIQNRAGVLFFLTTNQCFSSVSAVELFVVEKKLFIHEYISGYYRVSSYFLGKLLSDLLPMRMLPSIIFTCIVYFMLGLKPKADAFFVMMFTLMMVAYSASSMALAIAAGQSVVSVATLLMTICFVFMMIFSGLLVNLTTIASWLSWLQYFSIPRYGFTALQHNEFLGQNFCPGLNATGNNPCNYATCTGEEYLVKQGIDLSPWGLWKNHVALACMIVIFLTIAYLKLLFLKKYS
Chain of UniProt P11509 (whole entry, looked up): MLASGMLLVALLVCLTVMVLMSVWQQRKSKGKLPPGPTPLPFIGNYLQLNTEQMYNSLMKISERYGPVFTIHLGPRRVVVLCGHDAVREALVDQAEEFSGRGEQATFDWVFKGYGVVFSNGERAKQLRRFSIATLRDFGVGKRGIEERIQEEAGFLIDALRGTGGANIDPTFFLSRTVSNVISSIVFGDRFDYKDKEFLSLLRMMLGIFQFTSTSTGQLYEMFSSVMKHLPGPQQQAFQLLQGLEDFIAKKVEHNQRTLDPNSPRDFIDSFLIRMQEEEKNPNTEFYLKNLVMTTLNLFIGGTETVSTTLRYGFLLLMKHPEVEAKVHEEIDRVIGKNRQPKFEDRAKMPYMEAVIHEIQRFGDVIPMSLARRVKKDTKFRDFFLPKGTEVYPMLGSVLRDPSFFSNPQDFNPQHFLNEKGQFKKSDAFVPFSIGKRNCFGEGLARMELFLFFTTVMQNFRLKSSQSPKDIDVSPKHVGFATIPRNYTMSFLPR
Chain of UniProt P00760 (whole entry, looked up): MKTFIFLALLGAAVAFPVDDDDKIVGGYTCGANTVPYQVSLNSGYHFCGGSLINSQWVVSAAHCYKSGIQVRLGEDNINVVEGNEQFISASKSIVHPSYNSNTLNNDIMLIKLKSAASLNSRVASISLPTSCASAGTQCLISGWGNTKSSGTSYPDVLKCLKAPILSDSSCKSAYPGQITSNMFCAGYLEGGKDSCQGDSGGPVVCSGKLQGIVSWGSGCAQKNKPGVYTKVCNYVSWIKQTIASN

C=CC(=O)N1CCC([C@@H]2CCNc3c(C(N)=O)c(-c4ccc(Oc5ccccc5)cc4)nn32)CC1  remaining activity (ABCG2; transport, measured: Lucifer Yellow uptake; membrane vesicles; 0.05 µM; reference: vehicle): 93 ± 17%
CC[C@H](C)[C@H](NC(=O)[C@H](CCC(=O)O)NC(=O)[C@H](CO)NC(=O)[C@@H](NC(=O)[C@@H](N)CO)C(C)C)C(=O)N[C@@H](CCC(N)=O)C(=O)N[C@@H](CC(C)C)C(=O)N[C@@H](CCSC)C(=O)N[C@@H](Cc1cnc[nH]1)C(=O)N[C@@H](CC(N)=O)C(=O)N[C@@H](CC(C)C)C(=O)NCC(=O)N[C@@H](CCCCN)C(=O)N[C@@H](Cc1cnc[nH]1)C(=O)N[C@@H](CC(C)C)C(=O)N[C@@H](CC(N)=O)C(=O)N[C@@H](CO)C(=O)N[C@@H](CCSC)C(=O)N[C@@H](CCC(=O)O)C(=O)N[C@@H](CCCN=C(N)N)C(=O)N[C@H](C(=O)N[C@@H](CCC(=O)O)C(=O)N[C@@H](Cc1c[nH]c2ccccc12)C(=O)N[C@@H](CC(C)C)C(=O)N[C@@H](CCCN=C(N)N)C(=O)N[C@@H](CCCCN)C(=O)N[C@@H](CCCCN)C(=O)N[C@@H](CC(C)C)C(=O)N[C@@H](CCC(N)=O)C(=O)N[C@@H](CC(=O)O)C(=O)N[C@H](C(=O)N[C@@H](Cc1cnc[nH]1)C(=O)N[C@@H](CC(N)=O)C(=O)N[C@@H](Cc1ccccc1)C(=O)O)C(C)C)C(C)C  remaining intact compound (Serine protease 1 (PRSS1, Bos taurus, UniProt P00760); substrate, HPLC-UV; Tris buffer; 15 min, pH 6.5, 37 °C, added: bovine trypsin 0.5 mg, no SBTI): 0%
CCCCCCCCN(C)C  intrinsic clearance in vitro (Oncorhynchus mykiss; liver S9 substrate depletion; pooled rainbow trout liver S9; pH 7.8, tested individually): 1.32 mL/h/mg S9 protein
CCN(CC)C(=O)COC(=O)c1c(NC(C)=O)sc2c1CCCC2  EC50 (Trypanosoma brucei; viability, flow cytometry; bloodstream form; 24 h): ~20000 nM
O=C1N=C(N2CCOCC2)CN1c1ccc(Cl)cc1  Cmax (beagle dog, female, plasma; oral, 30 mg/kg, tablets, fasted): 18400 ng/mL
COc1cccc(-c2cc3nc(-c4ccccc4)cc(N4CCN(C(=O)c5ccco5)CC4)n3n2)c1  IC50 (ABCG2; JC-1 dye efflux, inhibitor, flow cytometry; ABCG2-overexpressing cells; added: JC-1 1 µM): 1400 ± 320 nM
CNCc1ccc(-c2[nH]c3cc(F)cc4c3c2CCNC4=O)cc1  AUC(0-t) (human patients, plasma; oral, 40 mg once daily, day 15, 24 h, steady state, arithmetic mean): 1810 ng·h/mL
CC(=O)N1CCN(c2cc(-c3ccco3)nc3cc(-c4cccc(Cl)c4)nn23)CC1  IC50 (ABCG2; JC-1 dye efflux, inhibitor, flow cytometry; ABCG2-overexpressing cells; added: JC-1 1 µM): 560 nM
CCCCCCCCCCCCCN  intrinsic clearance in vitro (Oncorhynchus mykiss; liver S9 substrate depletion; pooled rainbow trout liver S9; pH 7.8, tested individually): 0.111 mL/h/mg S9 protein
O=C(c1ccoc1)N1CCN(c2cc(-c3ccncc3)nc3cc(-c4cccc(Cl)c4)nn23)CC1  IC50 (ABCG2; JC-1 dye efflux, inhibitor, flow cytometry; ABCG2-overexpressing cells; added: JC-1 1 µM): 1460 ± 350 nM
CCCCCCCCCCCC[N+](C)(C)Cc1ccccc1  intrinsic clearance in vivo (Oncorhynchus mykiss; liver S9 substrate depletion; pooled rainbow trout liver S9; pH 7.8, tested individually): 22 mL/h/g liver
O=C(c1ccoc1)N1CCN(c2cc(-c3ccccc3F)nc3cc(-c4ccccc4)nn23)CC1  IC50 (ABCG2; JC-1 dye efflux, inhibitor, flow cytometry; ABCG2-overexpressing cells; added: JC-1 1 µM): 560 nM
C=C(C[C@H](N)C(=O)O)C(=O)NC1CC1  EC50 (MDA-MB-231; necrosis; 24 h): > 316000 nM
CCCCCCCCCCNC  intrinsic clearance in vitro (Oncorhynchus mykiss; liver S9 substrate depletion; rainbow trout liver S9; tested individually): 0.335 mL/h/mg S9 protein
O=C1CC(c2ccccc2)Oc2ccccc21 (stereo not drawn)  Km (Cytochrome P450 2A6 (CYP2A6, Homo sapiens, UniProt P11509); substrate, measured: 4'-hydroxy metabolite formation; reconstituted system): 13 µM
